Results gathered from unrelated publications.
Lines come from different studies, so protocols differ.
Target: calf thymus DNA

CCN(CC)CCCC(C)Nc1cc[n+]([Ru-]([OH2+])[OH2+])c2cc(Cl)ccc12.Cc1ccc(C(C)C)cc1.F[B-](F)(F)F.F[B-](F)(F)F (stereo not shown) — delta Tm (thermal denaturation; 0.5 equivalents per DNA, 1 h, pH 7.39, 25 °C, 25 mM NaClO4): 4.8 °C
COC(=O)c1cnc(-c2cnccn2)cc1C(=O)OC.COC(=O)c1cnc(-c2cnccn2)cc1C(=O)OC.[Cl-].[Cl-].[Cl-].[Cl-].[Cu+2].[Cu+2] — fluorescence quenching (ethidium bromide displacement): 28.2%
Cc1c(C)c(C)[c-](C)c1C.[C-]#[O+].[C-]#[O+].[C-]#[O+].[Cl-].[Cl-].[Cl-].[Ir+3].[Re+].c1cnc(-c2ncccn2)nc1 — number of binding sites (concentration not given): 0.97
CCCNCC(=O)O — bimolecular quenching rate constant (ethidium bromide displacement fluorescence; room temperature): 4.2e+10 M⁻¹ s⁻¹
[C-]#[O+].[C-]#[O+].[C-]#[O+].[C-]#[O+].[C-]#[O+].[C-]#[O+].[Cl-].[Cl-].[Re+].[Re+].c1cnc(-c2ncccn2)nc1 — number of binding sites (concentration not given): 1.14
CS(C)=O.CS(C)=O.[Cl][Cu][Cl].c1ccc(-c2nnc(-c3ccc4c(c3)OCO4)[nH]2)nc1 — Stern-Volmer constant (GelRed displacement; room temperature): 5010 M⁻¹
CCCCCC(C)NCC(=O)O (stereo not shown) — Stern-Volmer constant (ethidium bromide displacement fluorescence; room temperature): 280 M⁻¹
CC1=[N+]2N=C(c3ccccc3)[O][Pd-2]2([Cl])[O+]=C2Oc3ccccc3C=C21 (stereo not shown) — hypochromism (UV-visible absorption titration; concentration not given, pH 7.2): 12.7%
CCN(CC)CCCC(C)Nc1cc[n+]([Ru-]([Cl])[Cl])c2cc(Cl)ccc12.c1ccccc1 (stereo not shown) — delta Tm (thermal denaturation; 0.5 equivalents per DNA, 1 h, pH 7.39, 25 °C, 50 mM NaClO4): 3.5 °C
Cc1ccc(C(C)C)cc1.[Cl-].[Cl][Ru+].[Ru+].c1ccc(-c2cn(CCCCOc3ccccc3-c3nc4ccccc4s3)nn2)nc1 — Stern-Volmer constant (ethidium bromide displacement): 10000 M⁻¹

Repeated from above:
CCCNCC(=O)O — bimolecular quenching rate constant (ethidium bromide displacement fluorescence; room temperature): 4.2e+10 M⁻¹ s⁻¹
